Assay results from different studies.
Each line is one published result; not all experiments were run side by side. “And” joins repeats or separate records; there may be more than shown. ± gives the spread as reported.
Urea transporter 1: Urea transporter 1 (Homo sapiens, UniProt Q13336)
UniProt Q13336, sequence (whole entry, looked up): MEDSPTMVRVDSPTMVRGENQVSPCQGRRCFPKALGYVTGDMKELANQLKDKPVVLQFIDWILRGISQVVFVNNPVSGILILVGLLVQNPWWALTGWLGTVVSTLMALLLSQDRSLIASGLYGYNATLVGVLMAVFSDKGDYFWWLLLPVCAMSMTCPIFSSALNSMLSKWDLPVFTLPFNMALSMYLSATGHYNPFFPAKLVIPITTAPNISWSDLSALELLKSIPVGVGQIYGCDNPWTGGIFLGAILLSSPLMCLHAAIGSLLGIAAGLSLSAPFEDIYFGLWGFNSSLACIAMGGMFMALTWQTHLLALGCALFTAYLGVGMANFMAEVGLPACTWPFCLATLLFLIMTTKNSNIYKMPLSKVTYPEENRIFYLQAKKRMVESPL
Vesicular acetylcholine transporter: Vesicular acetylcholine transporter (Rattus norvegicus, UniProt Q62666)
UniProt Q62666, sequence (whole entry, looked up): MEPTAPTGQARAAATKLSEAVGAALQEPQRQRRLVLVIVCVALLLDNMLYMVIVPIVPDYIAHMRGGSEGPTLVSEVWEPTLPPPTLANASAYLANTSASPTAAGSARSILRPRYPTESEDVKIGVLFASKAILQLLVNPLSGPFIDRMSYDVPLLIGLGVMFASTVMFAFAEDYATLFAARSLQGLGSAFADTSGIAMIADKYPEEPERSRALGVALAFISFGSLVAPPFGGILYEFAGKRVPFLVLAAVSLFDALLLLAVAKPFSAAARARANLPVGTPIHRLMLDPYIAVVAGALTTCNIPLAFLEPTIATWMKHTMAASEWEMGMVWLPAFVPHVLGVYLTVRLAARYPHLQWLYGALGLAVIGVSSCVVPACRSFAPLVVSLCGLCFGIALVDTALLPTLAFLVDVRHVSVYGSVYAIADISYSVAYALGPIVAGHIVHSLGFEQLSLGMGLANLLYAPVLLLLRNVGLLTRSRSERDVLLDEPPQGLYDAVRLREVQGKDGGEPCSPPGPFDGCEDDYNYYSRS
Glutamate receptor ionotropic, kainate 3: Glutamate receptor ionotropic, kainate 3 (Rattus norvegicus, UniProt P42264)
UniProt P42264, sequence (whole entry, looked up): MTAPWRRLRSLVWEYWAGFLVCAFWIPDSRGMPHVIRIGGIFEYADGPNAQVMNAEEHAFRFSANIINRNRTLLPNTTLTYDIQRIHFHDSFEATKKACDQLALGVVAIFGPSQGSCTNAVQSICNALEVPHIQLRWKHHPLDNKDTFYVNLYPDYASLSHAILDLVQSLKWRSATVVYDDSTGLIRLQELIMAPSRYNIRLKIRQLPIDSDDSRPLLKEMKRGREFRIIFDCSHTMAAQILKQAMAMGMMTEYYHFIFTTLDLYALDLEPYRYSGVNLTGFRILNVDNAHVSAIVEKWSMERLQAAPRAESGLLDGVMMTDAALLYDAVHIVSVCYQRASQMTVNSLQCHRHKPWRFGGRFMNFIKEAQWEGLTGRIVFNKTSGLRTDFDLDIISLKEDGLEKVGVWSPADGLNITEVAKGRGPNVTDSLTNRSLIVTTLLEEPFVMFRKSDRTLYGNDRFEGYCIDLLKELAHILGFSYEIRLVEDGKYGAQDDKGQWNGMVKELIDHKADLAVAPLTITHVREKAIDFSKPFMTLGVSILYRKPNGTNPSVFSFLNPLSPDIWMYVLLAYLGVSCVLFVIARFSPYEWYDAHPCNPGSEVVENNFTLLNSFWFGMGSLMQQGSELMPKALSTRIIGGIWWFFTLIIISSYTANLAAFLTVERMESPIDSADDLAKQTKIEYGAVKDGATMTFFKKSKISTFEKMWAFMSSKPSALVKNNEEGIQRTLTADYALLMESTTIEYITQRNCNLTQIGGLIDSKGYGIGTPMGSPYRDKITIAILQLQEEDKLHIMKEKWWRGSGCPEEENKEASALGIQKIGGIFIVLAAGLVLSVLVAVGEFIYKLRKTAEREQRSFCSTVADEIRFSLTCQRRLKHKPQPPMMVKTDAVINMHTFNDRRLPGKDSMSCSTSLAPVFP
DNA polymerase III PolC V741I: DNA polymerase III PolC (Clostridioides difficile, UniProt Q18BG8, V741I)
UniProt Q9NWT6, sequence (whole entry, unmodified, looked up): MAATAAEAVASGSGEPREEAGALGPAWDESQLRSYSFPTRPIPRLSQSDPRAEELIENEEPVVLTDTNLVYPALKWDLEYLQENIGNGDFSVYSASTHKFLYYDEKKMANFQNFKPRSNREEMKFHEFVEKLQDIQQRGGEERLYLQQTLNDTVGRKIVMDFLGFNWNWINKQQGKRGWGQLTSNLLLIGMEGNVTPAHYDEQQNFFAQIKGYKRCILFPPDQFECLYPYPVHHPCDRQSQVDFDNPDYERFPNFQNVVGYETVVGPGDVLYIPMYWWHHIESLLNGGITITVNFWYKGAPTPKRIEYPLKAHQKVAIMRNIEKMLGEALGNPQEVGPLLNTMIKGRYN
UniProt P31645, sequence (whole entry, looked up): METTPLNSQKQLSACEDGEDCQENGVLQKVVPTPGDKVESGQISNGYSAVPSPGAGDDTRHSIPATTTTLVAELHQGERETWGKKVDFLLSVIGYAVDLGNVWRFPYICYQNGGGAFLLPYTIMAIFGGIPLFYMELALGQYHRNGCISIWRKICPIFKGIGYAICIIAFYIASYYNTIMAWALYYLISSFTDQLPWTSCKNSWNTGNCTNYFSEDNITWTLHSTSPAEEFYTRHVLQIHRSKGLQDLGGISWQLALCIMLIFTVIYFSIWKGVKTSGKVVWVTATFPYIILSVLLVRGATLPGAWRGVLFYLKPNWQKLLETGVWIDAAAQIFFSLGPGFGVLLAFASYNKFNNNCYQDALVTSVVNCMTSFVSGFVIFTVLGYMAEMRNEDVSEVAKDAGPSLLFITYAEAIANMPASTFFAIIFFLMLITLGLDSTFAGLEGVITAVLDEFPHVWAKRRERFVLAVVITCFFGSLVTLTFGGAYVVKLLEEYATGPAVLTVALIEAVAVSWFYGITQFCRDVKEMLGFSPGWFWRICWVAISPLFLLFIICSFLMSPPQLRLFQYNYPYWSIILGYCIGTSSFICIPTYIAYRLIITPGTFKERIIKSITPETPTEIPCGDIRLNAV
UniProt P31424, sequence (whole entry, looked up): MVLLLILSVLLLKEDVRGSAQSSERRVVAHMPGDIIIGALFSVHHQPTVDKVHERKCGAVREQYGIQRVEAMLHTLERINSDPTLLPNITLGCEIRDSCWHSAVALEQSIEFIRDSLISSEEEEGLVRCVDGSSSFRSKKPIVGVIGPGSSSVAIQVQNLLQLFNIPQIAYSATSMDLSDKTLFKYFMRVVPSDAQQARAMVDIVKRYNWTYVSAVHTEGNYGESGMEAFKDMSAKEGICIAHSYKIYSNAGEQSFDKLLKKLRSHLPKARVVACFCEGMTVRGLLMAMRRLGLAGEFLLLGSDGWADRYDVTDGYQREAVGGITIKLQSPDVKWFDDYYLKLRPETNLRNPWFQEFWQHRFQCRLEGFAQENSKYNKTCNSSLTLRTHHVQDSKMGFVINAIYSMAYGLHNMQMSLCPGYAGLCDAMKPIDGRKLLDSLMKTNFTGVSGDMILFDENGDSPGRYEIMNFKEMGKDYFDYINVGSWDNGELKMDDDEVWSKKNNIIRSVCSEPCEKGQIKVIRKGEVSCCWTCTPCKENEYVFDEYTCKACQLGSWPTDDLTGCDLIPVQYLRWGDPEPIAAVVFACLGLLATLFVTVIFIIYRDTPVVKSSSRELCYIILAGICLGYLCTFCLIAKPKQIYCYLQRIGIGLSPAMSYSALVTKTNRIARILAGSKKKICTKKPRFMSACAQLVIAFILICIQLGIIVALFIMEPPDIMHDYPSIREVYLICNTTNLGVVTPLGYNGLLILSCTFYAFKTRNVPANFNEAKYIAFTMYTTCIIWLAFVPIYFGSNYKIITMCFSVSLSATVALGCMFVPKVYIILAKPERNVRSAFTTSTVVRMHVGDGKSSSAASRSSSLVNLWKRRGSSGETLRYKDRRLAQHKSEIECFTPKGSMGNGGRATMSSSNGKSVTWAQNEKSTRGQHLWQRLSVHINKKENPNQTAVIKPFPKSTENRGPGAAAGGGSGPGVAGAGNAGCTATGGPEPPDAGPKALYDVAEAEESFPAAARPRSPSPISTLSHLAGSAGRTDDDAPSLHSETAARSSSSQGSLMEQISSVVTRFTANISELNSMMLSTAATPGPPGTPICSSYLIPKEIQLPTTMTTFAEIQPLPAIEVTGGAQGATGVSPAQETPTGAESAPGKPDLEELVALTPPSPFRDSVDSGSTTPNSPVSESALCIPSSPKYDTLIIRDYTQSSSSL
UniProt P10636, sequence (whole entry, looked up): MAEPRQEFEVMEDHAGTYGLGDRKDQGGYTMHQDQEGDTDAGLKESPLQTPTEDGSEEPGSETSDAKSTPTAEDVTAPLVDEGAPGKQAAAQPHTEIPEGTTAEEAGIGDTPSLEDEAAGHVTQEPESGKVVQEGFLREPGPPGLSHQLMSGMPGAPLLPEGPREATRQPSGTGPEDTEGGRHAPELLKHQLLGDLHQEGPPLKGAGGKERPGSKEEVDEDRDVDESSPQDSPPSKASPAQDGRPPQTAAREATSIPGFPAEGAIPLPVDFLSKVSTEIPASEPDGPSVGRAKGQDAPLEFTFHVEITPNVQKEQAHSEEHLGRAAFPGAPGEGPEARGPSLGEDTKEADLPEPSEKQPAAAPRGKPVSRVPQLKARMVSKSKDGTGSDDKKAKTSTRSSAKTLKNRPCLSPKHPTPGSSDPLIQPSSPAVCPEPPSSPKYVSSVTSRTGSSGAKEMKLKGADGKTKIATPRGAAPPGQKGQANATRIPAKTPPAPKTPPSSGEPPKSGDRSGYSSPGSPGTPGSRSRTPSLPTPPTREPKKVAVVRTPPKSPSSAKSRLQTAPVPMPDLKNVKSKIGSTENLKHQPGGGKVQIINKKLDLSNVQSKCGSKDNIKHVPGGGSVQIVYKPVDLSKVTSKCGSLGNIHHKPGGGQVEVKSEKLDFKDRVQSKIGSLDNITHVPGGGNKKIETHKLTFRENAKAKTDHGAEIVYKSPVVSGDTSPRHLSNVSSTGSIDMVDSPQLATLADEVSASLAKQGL

NC(=O)CI
Ki (Urea transporter 1; urea transport inhibition; added: thiourea): 12000 µM

CC1=Cc2ccccc2C12CCN(C1Cc3ccccc3CC1O)CC2 (racemic)
Ki (Vesicular acetylcholine transporter; radioligand binding; PC12 expressing VAChT; added: [3H]vesamicol): 0.023 ± 0.001 µM

COCC1OC2CC(CC(N)C(=O)O)(C(=O)O)OC2C(O)C1O (centres unmarked)
Ki (Glutamate receptor ionotropic, kainate 3; binding, [3H]kainate displacement; HEK293T/17 membranes; added: [3H]kainate): 14.5 µM

COc1cc2c(cc1OC)-c1c(OC)c(OC)cc3c1[C@H](C2)N(C)CC3 (racemic)
Ki (Alpha-1A adrenergic receptor (ADRA1A, Homo sapiens, UniProt P35348); binding; secondary): 1.32 µM

NC(=S)Nc1ccc([N+](=O)[O-])cc1
Ki (Urea transporter 1; urea transport inhibition; added: thiourea): 30 µM

CC(C)[C@H](N)C(=O)OCCCCCn1cnc2nc(NCc3ccc(Cl)c(Cl)c3)[nH]c(=O)c21
Ki (DNA polymerase III PolC V741I; enzyme activity, inhibitor; truncated, dGTP omitted, 4% DMSO): 1.57 µM

O[C@@H]1CCCC[C@H]1N1CCC(c2ccccc2)CC1 (racemic)
Ki (Vesicular acetylcholine transporter; binding, radioligand displacement; PC12 expressing VAChT; added: [3H]-labelled compound): 0.028 ± 0.003 µM

NC(=O)c1ccc[n+]([C@@H]2O[C@H](COP(=O)(O)OP(=O)(O)OC[C@H]3O[C@@H](n4cnc5c(N)ncnc54)[C@H](OP(=O)(O)O)[C@@H]3O)[C@@H](O)[C@H]2O)c1
Ki (chnB (Rhodococcus sp. HI-31, UniProt C0STX7, L145N)): 42 µM

CC(C)C[C@H](NC(=O)CNC(=O)[C@H](C)NC(=O)c1ccc(S(=O)(=O)NC[C@H]2O[C@@H](C)[C@@H](O)[C@@H](O)[C@@H]2O)cc1)C(=O)N[C@@H](C)C(=O)NC[C@@H]1CCN(c2cc3c(cc2F)c(=O)c(C(=O)O)cn3C2CC2)C1
Ki (fucose-binding lectin LecB (Pseudomonas aeruginosa, UniProt A0A0H2ZE85); binding, competitive fluorescence polarization): 0.29 ± 0.05 µM

CCc1cc(Nc2cc(=O)n(CCCCO)c(=O)[nH]2)ccc1C
Ki (DNA polymerase III PolC V741I; enzyme activity, inhibitor; truncated, dGTP omitted, 4% DMSO): 0.37 µM

COc1ccccc1-n1nc2c3cc(Cl)ccc3[nH]cc-2c1=O
Ki (Gabrg2/Gabra6, α6+/γ2− interface (Rattus norvegicus, UniProt P18508+P30191); rat cerebellar membranes; added: [3H]Ro15-4513, diazepam 50 mM): 0.329 ± 0.076 µM

O=C(O)CCC(=O)C(=O)O
Ki (Hypoxia-inducible factor 1-alpha inhibitor (HIF1AN, Homo sapiens, UniProt Q9NWT6, Y93A); cosubstrate; pH 7.00, 37.0 °C, mutant Y93A, added: CTAD peptide 100 µM): 350 µM and ~300 µM

CC[C@H]1OC(=O)[C@H](C)[C@@H](O[C@H]2C[C@@](C)(OC)[C@@H](O)[C@H](C)O2)[C@H](C)[C@@H](O[C@@H]2O[C@H](C)C[C@H](N(C)C)[C@H]2O)[C@](C)(O)C[C@@H](C)C(=O)[C@H](C)[C@@H](O)[C@]1(C)O
Ki (uncharacterized protein (Saccharopolyspora erythraea, UniProt A4F7P9); inhibitor; pH 7.6, 20 °C, added: p-nitrophenyl-β-D-glucopyranoside): 124 ± 130 µM

CN[C@H]1[C@H]2O[C@@](C[C@H](N)C(=O)O)(C(=O)O)C[C@H]2OC[C@H]1O
Ki (Glutamate receptor ionotropic, kainate 3; ligand): 0.0054 µM

COc1cc2c(cc1OC)CN(CCc1ccc(NC(=O)c3cccc4c(=O)c5cccc(OC)c5[nH]c34)cc1)CC2
Ki (Sodium-dependent serotonin transporter (SLC6A4, Homo sapiens, UniProt P31645); binding): 0.14 µM

OCC1CCN(c2ccc(-c3cc4cc(O)ccc4[nH]3)c(F)n2)CC1
Ki (Microtubule-associated protein tau, AD brain aggregates (MAPT, Homo sapiens, UniProt P10636); Alzheimer's disease brain homogenate; added: [3H]asyn-44): > 10 µM

C[C@@H](NC(=O)c1ccc(C#Cc2cccc(F)c2)cn1)C(C)(C)O
Ki (Metabotropic glutamate receptor 5, MPEP allosteric site (Grm5, Rattus norvegicus, UniProt P31424); [3H]methoxy-PEPy displacement; MPEP allosteric site): 0.0118 ± 0.0001 µM

N[C@@H](Cc1cc(I)c(O)c(I)c1)C(=O)O
Ki (Cytochrome P450 2E1 (CYP2E1, Homo sapiens, UniProt P05181); p-nitrophenol hydroxylation, inhibitor; baculosomes; 10 min, with additive 1 µM): 0.5 µM

Cn1cnc2nc(NCc3ccc(Cl)c(Cl)c3)[nH]c(=O)c21
Ki (DNA polymerase III PolC V741I; enzyme activity, inhibitor; truncated, dGTP omitted, 4% DMSO): 0.89 µM

O=Cc1ccccc1
Ki (uncharacterized protein (Bradysia odoriphaga, UniProt A0A2S0X9G4); binding, competitive fluorescence displacement): > 50 µM
